Literature values as cited in several papers.
Compare with care: the assays were run in different laboratories. Numbers after ± are the reported error.
MEP1A: Meprin A subunit alpha (MEP1A, Homo sapiens, UniProt Q16819)
UniProt Q16819, sequence (whole entry, looked up): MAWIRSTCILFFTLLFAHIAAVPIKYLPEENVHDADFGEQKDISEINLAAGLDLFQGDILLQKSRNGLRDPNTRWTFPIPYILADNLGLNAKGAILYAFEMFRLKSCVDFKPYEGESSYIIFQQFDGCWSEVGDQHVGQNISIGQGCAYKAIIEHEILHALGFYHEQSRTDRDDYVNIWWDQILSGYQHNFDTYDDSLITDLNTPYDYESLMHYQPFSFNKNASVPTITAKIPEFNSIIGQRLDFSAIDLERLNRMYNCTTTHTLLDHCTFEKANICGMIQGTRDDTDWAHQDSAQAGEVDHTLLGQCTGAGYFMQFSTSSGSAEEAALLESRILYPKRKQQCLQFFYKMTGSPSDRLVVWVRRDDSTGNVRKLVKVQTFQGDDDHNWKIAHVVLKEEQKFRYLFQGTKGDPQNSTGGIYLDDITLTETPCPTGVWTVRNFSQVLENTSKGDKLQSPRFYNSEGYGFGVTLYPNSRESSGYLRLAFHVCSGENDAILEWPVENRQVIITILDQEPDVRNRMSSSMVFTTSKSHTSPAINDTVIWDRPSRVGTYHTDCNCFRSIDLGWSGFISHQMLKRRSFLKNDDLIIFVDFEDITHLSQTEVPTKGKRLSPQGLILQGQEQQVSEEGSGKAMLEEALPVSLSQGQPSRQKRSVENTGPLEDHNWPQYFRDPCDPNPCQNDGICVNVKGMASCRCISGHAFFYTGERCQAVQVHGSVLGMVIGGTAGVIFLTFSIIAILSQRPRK
BRD4 BD1: Bromodomain-containing protein 4, BD1 (BRD4, Homo sapiens, UniProt O60885)
UniProt P34972, sequence (whole entry, looked up): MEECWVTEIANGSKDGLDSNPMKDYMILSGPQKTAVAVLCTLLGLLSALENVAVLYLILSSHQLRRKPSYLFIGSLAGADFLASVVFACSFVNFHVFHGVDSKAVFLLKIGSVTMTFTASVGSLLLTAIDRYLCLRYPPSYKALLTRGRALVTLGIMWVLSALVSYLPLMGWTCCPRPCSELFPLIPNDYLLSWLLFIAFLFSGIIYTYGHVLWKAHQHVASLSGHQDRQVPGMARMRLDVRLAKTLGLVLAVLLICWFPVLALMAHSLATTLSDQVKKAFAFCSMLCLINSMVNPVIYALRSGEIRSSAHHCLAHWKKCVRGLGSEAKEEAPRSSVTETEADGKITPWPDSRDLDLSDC
UniProt P27338, sequence (whole entry, looked up): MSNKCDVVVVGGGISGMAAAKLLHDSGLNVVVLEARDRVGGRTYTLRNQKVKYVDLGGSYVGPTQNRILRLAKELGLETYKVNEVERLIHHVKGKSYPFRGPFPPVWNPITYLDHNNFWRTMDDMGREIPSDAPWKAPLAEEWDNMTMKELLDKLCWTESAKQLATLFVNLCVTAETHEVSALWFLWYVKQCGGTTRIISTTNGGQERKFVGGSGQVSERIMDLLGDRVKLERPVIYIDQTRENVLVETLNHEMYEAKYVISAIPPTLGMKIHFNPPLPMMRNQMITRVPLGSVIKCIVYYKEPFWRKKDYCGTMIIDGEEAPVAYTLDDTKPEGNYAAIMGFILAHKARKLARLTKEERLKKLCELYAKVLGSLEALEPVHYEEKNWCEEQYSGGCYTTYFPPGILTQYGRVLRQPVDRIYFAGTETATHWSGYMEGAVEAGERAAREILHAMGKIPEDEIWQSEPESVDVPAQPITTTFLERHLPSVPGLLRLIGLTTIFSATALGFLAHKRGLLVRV
UniProt P00383, sequence (whole entry, looked up): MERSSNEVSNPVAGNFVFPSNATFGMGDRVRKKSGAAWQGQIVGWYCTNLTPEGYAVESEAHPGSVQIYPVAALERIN
UniProt P00690, sequence (whole entry, looked up): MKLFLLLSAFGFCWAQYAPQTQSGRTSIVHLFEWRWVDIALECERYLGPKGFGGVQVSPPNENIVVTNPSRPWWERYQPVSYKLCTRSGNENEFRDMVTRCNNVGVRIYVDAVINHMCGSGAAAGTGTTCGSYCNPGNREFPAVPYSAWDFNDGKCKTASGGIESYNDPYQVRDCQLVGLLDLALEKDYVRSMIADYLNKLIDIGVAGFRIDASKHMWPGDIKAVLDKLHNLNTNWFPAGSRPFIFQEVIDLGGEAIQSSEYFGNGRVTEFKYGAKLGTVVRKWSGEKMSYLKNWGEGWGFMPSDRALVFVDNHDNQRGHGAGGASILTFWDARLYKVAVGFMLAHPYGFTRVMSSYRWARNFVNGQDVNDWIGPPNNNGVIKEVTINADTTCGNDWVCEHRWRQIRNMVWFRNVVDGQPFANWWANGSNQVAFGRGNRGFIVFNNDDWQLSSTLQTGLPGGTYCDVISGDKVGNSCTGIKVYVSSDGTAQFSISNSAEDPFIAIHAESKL
UniProt Q9UH17, sequence (whole entry, looked up): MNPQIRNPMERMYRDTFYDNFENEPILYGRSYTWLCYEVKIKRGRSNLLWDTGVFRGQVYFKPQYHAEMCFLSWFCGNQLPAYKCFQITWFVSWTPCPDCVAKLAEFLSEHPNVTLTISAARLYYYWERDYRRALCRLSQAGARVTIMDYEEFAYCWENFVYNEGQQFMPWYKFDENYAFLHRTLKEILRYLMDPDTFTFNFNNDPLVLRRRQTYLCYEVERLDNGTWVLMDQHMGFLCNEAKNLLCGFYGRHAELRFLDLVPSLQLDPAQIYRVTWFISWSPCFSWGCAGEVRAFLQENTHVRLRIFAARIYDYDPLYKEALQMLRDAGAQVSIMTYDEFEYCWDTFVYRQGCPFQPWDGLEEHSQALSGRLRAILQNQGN
UniProt Q9Y2I7, sequence (whole entry, looked up): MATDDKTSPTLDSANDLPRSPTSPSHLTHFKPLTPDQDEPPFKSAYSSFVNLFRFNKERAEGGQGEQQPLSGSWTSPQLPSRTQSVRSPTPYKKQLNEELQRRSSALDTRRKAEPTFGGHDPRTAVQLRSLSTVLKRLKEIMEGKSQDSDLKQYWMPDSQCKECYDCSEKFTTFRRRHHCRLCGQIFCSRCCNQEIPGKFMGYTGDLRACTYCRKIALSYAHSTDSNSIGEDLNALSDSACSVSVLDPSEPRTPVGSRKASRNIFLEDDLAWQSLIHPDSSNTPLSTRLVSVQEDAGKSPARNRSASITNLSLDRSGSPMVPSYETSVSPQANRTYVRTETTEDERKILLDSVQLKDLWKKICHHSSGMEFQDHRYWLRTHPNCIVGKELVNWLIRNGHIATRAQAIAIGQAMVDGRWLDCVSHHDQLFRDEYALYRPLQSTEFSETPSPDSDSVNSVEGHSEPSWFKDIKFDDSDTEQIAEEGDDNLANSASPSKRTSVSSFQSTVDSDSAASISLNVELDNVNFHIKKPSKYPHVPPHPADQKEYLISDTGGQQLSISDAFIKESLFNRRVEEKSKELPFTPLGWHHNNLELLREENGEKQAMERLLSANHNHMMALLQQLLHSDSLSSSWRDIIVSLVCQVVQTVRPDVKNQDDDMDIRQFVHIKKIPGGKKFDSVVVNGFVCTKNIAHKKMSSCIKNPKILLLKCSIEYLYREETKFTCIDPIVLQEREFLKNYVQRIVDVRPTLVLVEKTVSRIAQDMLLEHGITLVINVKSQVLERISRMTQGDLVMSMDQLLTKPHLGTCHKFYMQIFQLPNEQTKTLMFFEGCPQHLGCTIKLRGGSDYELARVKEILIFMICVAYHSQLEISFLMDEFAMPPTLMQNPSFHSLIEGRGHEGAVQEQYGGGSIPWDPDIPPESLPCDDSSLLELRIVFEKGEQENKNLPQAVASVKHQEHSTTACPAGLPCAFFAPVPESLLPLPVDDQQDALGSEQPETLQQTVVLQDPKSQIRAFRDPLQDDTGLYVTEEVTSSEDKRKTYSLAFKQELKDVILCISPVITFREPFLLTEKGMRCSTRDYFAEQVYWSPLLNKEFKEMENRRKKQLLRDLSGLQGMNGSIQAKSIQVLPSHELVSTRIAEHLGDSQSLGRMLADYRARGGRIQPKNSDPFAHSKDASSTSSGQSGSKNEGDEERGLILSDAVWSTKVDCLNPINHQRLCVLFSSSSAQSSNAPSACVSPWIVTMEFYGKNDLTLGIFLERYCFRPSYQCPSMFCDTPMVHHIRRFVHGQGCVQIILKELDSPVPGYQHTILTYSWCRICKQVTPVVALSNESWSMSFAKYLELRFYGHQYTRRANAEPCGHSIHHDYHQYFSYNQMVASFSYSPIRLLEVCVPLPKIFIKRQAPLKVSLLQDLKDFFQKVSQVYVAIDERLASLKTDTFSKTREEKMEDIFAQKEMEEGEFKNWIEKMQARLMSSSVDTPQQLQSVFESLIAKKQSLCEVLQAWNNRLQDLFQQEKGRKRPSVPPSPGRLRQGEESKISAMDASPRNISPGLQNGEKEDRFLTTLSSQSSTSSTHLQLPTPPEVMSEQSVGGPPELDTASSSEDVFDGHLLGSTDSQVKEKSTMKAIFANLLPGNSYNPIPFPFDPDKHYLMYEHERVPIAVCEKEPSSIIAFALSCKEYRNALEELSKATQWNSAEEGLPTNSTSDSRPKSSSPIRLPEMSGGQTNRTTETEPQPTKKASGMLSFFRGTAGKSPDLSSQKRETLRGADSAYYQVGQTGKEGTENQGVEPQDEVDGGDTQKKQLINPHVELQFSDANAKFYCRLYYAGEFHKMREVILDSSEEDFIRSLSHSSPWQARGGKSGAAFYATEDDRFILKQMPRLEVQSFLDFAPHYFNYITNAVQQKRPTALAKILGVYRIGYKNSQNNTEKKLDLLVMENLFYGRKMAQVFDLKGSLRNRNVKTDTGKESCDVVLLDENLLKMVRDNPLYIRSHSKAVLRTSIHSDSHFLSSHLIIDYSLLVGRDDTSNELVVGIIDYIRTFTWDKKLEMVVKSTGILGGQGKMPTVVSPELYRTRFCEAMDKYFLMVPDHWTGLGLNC

| Structure (SMILES) | target or system | assay | test system | conditions | how to read | measurement | value |
| --- | --- | --- | --- | --- | --- | --- | --- |
| Cc1nc(-c2ccc(F)cc2)sc1C(=O)N[C@H](C(=O)Nc1cccc(C(N)=O)c1)c1ccc(OCc2ccccc2)cc1 | Genome polyprotein, NS2B-NS3 protease (dengue virus type 2, UniProt P29990) | protease activity, inhibitor |  | together with: substrate 50 µM |  | IC50 | 12000 nM |
| Cc1cc(N=Nc2ccc3c(c2)CCC(=O)N3)c(N)cc1O | Bromodomain-containing protein 4, BD2 (BRD4, Homo sapiens, UniProt O60885) | biochemical |  | bromodomain 2 |  | IC50 | 32 nM |
| O=C(CCN(Cc1cccnc1)Cc1cccnc1)NO | MEP1A | enzyme activity, inhibitor |  |  |  | IC50 | 7680 ± 410 nM |
| Nc1ccc(C(=O)C=C(O)C(F)(F)C(F)(F)F)cn1 | Plasmodium falciparum formate-nitrite transporter | binding, FCCS | isolated protein |  |  | Ki | 31 ± 6 nM |
| Cc1cc2c(c(O)c1O)C(=O)c1c(O)cc(O)cc1C2=O | MAOB (Homo sapiens, UniProt P27338) |  |  |  |  | IC50 | 4550 ± 90 nM |
| O=C(O)c1ccc2[nH]c(-c3ccc(OCC(O)COc4ccc(-c5nc6cc(C(=O)O)ccc6[nH]5)cc4)cc3)nc2c1 | Dihydrofolate reductase type 2 (Escherichia coli, UniProt P00383) |  |  |  |  | IC50 | 130000 ± 11000 nM |
| COc1ccc(C(C)=O)c(OC(=O)/C=C/c2ccc(F)cc2)c1 | tyrosinase | inhibitor |  |  |  | IC50 | 8000 nM |
| CC(=O)c1sc(N/N=C2/c3ccccc3-c3nc4cc(F)ccc4nc32)nc1C | α-glucosidase |  |  |  |  | IC50 | 982 ± 40 nM |
| CC(C)c1ccc(CN2CCN(CC(=O)c3ccc4[nH]c(=O)[nH]c4c3)CC2)cc1 | DNA dC->dU-editing enzyme APOBEC-3B, C-terminal domain (Homo sapiens, UniProt Q9UH17) |  |  |  |  | IC50 | 40000 nM |
| c1ccc2c(c1)CCNC2c1c[nH]c2cnccc12 (centres unmarked) | COLO 320 ABCB1-resistant colon | cytotoxicity |  |  |  | IC50 | > 100000 nM |
| COc1ccc(Nc2nc(Nc3ccc(OCC[18F])cc3)ncc2Br)cc1 |  |  | S180 tumour-bearing mice | intravenous, 120 min | relative to: tumour over bone | tumour to tissue ratio | 0.66 |
| CNCc1ccc(-c2cc3cc(F)cc(C(N)=O)c3o2)cc1 | PARP1 (Homo sapiens, UniProt P09874) | enzyme activity, inhibitor |  |  |  | IC50 | 3.2 nM |
| CCOC(=O)c1[nH]c(C)c(Cc2ccc(C(F)(F)F)nc2)c1C | DHODH (Homo sapiens, UniProt Q02127) |  |  |  |  | IC50 | > 100000 nM |
| Cc1cc(-c2nc3sc4c(c3c(=O)[nH]2)CCN(C)C4)cc(C)c1O | BRD4 BD1 | biochemical |  | bromodomain 1 |  | IC50 | 430 nM |
| CC(C)(COC(=O)c1ccc2c(c1)OCO2)CC1=C(O)C(=O)c2ccccc2C1=O | alpha-glucosidase | inhibitor |  |  |  | IC50 | 72.5 ± 1 µg/mL |
| O=C(CN(Cc1ccc2c(c1)OCO2)Cc1ccc2c(c1)OCO2)NO | MEP1A | enzyme activity, inhibitor |  |  |  | IC50 | 1920 ± 120 nM |

| Structure (SMILES) | target or system | assay | test system | conditions | how to read | measurement | value |
| --- | --- | --- | --- | --- | --- | --- | --- |
| COc1cccc(OC(=O)COC(=O)/C=C/c2ccc(O)cc2)c1 | tyrosinase | inhibitor |  |  |  | IC50 | 5700 nM |
| CCOC(=O)C(c1cc(Cl)c2cccnc2c1O)c1c[nH]c2ncccc12 (centres unmarked) | COLO 320 ABCB1-overexpressing | cell viability |  |  |  | IC50 | 5060 nM |
| O=C(N/N=C/c1ccc(O)c(O)c1O)c1n[nH]c2ccccc12 | AMY2 (Sus scrofa, UniProt P00690) |  |  |  | inhibition | IC50 | 400 ± 10 nM |
| C/C=C(\C)CC/C=C(\C)C(=O)OCC(C)(C)CC1=C(O)C(=O)c2ccccc2C1=O | alpha-glucosidase | inhibitor |  |  |  | IC50 | 22.6 ± 0.6 µg/mL |
| CCc1nc2c(-c3ccc(Cl)cc3)nc3ccccc3c2c(=O)n1CC(=O)O | aldose reductase AKR1B1 |  |  |  |  | IC50 | 120 ± 1 nM |
| Cc1ccc2occ(/C=N\Nc3nc(-c4cccc(Br)c4)cs3)c(=O)c2c1 | alpha-amylase | enzyme activity, inhibitor |  |  |  | IC50 | 2190 ± 30 nM |
| Cc1cc(S(=O)(=O)NC2CCCC2)cc(-c2csc(=O)[nH]2)c1N | BRD4 BD1 | biochemical |  | bromodomain 1 |  | IC50 | 790 nM |
| O=C(CN(Cc1cccc(C(=O)O)c1)Cc1ccc2c(c1)OCO2)NO | MEP1A | enzyme activity, inhibitor |  |  |  | IC50 | 1910 ± 70 nM |
| O=c1ccc(OCCCN2CCCCC2)nn1-c1ccc(Cl)c(Cl)c1 | CNR2 (Homo sapiens, UniProt P34972) |  |  | 1.0 µM |  | inhibition | 38.6 ± 1.9% |
| CC1C(=O)N(C)c2ccc(-c3ccc(Nc4cccc(S(=O)(=O)N(C)C)c4)cc3)nc2N1C1CCN(C)CC1 (centres unmarked) | BRD4 BD1 | biochemical |  | bromodomain 1 |  | IC50 | < 100 nM |
| CN(C)C/C=C/C(=O)Nc1ccc(C(=O)Nc2cccc(Nc3cc(-c4c[nH]c5ccccc45)ncn3)c2)cc1 | PIKFYVE (Homo sapiens, UniProt Q9Y2I7) | enzyme activity, inhibitor |  |  |  | IC50 | < 320 nM |
| Oc1ccc(-c2csc(N/N=C3/c4ccccc4-c4nc5ccccc5nc43)n2)cc1 | alpha-amylase | enzyme activity, inhibitor |  |  |  | IC50 | 620 ± 40 nM |
| O=C(N/N=C/c1ccc(O)c(O)c1)c1ccc(-c2nnc(-c3ccc4ncccc4c3)o2)cc1 | α-glucosidase | inhibitor |  |  |  | IC50 | 2600 ± 10 nM |
| O=C(C=C(O)C(F)(F)C(F)(F)F)c1ccsc1 | Plasmodium falciparum formate-nitrite transporter | binding, FCCS | isolated protein |  |  | Ki | 85 ± 4 nM |
| NC(=S)N/N=C/c1c[nH]c2ccccc12 | tyrosinase | enzyme activity |  |  |  | IC50 | 102000 nM |
| COc1ccc(O)c(-c2nnc(-c3cnc4c(F)cccc4c3O)s2)c1 | alpha-amylase | enzyme activity, inhibitor |  |  |  | IC50 | 20 ± 620 nM |
